Results pooled from the literature.
Every numbered part comes from another study and shows a few of its results, in no order. Changes are numbered by the printed parent chain.

Sample 1 — target: CCNF, cyclin fold, Cln2 fusion (human); method: yeast growth competition, sequencing; medium: yeast; notes: strong parent motif; reference: not given; direction: higher = stronger binding
Parent: WEE1 docking peptide (human); HKTFRKLRLFDTP; partner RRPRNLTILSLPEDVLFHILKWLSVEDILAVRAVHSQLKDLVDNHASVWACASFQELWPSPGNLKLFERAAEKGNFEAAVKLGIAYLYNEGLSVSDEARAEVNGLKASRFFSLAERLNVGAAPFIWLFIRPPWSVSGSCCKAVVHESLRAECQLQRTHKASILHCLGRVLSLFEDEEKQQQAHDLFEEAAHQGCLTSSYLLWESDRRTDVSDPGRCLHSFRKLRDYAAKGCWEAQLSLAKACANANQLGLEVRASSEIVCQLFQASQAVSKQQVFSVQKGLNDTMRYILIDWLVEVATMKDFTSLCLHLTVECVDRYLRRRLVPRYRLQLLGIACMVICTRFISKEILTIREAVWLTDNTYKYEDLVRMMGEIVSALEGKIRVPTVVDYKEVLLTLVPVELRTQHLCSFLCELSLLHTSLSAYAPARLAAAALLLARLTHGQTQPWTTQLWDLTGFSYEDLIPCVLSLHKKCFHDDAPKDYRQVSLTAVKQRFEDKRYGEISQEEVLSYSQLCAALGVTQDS
Variant | normalised enrichment score
L7E | 0.853
L7A | 0.737
R8L | 4.59
R5M | 1.87
F10Q | 0.81
K2M | 1.56

Sample 2 — method: protein-binding microarray; form: double-stranded DNA, one strand shown; medium: in vitro; concentration: 0.8 µM; notes: whole 60-bp probe, no competitor; direction: higher = stronger binding; constant ends, left off below: … GTCTTGATTCGCTTGACGCTGCTG
Target: Centromere-binding protein 1, full length, N-terminal tag (CBF1, Saccharomyces cerevisiae, UniProt P17106, residues 1-351)
UniProt P17106, sequence (whole entry, looked up): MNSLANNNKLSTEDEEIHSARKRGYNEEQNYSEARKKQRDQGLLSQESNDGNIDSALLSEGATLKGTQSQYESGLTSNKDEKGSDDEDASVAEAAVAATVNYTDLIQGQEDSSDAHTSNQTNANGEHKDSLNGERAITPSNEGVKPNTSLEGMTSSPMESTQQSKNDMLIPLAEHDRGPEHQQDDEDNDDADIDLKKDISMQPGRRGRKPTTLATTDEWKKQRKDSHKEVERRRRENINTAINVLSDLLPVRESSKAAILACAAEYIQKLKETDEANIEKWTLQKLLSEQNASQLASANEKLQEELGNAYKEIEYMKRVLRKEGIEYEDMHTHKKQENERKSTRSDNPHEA
Sequence | fluorescence intensity
GAACCGTTTTCGTCGTGCATCAGGAACGATCTTTAG | 543 a.u.
GAACGATAAAAGACCCTCACCTGTGTCACTAAATAG | 510 a.u.
CTAACTTGACTGCACCTCGTGTCGGAAGATTTTTTC | 604 a.u.
GAAAGAAAAGAAGGTGATGGAACCAATTTAGCTTAG | 488 a.u.
GAACTCGAGTTCAATCACGTCACCAATAGTAATTAG | 715 a.u.

Sample 3 — method: protein-binding microarray; form: double-stranded DNA, one strand shown; medium: in vitro; concentration: 2540 nM top; notes: 60-bp whole probe; with: salmon DNA 0.4 mg/ml; reference: random background probes; direction: higher = stronger binding; constant ends, left off below: GCCTAGCACT … GTCTTGATTCGCTTGACGCTGCTG
Target: Interferon regulatory factor 3, full length, phosphomimetic (IRF3, Homo sapiens, UniProt Q14653, residues 1-427, S386D/S396D/S398D/S402D/T404D/S405D)
Construct (chain): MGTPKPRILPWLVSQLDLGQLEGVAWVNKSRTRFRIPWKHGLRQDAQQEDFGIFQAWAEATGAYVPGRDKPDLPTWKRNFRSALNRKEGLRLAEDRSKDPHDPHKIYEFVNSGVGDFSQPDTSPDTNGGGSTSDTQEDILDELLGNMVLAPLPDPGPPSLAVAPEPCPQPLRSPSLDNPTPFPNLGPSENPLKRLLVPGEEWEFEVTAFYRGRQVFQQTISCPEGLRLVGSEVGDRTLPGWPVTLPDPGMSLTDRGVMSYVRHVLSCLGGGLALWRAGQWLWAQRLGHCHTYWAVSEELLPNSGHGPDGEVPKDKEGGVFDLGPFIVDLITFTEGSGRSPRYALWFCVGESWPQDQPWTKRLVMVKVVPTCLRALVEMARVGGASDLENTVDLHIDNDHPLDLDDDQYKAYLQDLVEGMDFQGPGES
Sequence | fitted relative affinity [z-score]
TGGGTTTCGACTTTCGGTTAGTGCTA | 2.94
TAGGTCTCCTATTCCTTTAGTGCTAG | 2.32
TAGACCTCAGTCTCGATTAGTGCTAG | -0.114
TAGGTATCGACACTTGGTTAGTGCTA | 0.298
TAGGTTTCGGGACTGGGCTAGTGCTA | 4.04
TTTTTTTTTCCCTGAAAAAGTGCTAG | 2.66
CAACTCTTCCTTTACTACTGTGCTAG | 0.866

Mixed results
Substance | target | test | test system | setting | how to read | measurement | result
PhoQ, residues 284 288 289 292 302 303 AQGLTV | PhoP, residues 12 14 15 18 19 QYFSL (Escherichia coli, UniProt P23836) | Sort-seq, measured: YFP reporter | E. coli | PhoQ-PhoP variant library, with: 10 µM Mg2+ | reference: high Mg2+ state, higher = stronger signaling | fold induction | 4.88

A few entries again (mixed results):
Substance | target | test | test system | setting | how to read | measurement | result
PhoQ, residues 284 288 289 292 302 303 AQGLTV | PhoP, residues 12 14 15 18 19 QYFSL (Escherichia coli, UniProt P23836) | Sort-seq, measured: YFP reporter | E. coli | PhoQ-PhoP variant library, with: 10 µM Mg2+ | reference: high Mg2+ state, higher = stronger signaling | fold induction | 4.88
